Earlier results that unrelated publications cite.
Each line is one published result; not all experiments were run side by side. ± gives the spread as reported.
UniProt Q01959, sequence (whole entry, looked up): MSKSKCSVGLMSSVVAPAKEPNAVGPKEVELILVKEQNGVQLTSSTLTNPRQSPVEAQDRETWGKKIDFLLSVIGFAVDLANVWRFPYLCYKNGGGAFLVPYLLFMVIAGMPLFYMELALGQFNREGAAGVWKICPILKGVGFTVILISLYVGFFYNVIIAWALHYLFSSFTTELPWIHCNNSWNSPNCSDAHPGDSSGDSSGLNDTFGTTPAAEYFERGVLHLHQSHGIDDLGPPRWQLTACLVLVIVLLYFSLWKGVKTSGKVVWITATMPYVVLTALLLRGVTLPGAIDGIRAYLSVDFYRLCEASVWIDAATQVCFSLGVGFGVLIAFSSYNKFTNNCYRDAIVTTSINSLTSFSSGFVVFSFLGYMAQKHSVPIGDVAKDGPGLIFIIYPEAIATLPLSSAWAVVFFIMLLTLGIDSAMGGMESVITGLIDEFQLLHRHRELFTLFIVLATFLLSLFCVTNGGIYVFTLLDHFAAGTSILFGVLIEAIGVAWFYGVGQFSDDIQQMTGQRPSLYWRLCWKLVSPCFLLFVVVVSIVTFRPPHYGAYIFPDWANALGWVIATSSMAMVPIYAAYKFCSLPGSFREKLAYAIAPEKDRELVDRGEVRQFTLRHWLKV
UniProt P41145, sequence (whole entry, looked up): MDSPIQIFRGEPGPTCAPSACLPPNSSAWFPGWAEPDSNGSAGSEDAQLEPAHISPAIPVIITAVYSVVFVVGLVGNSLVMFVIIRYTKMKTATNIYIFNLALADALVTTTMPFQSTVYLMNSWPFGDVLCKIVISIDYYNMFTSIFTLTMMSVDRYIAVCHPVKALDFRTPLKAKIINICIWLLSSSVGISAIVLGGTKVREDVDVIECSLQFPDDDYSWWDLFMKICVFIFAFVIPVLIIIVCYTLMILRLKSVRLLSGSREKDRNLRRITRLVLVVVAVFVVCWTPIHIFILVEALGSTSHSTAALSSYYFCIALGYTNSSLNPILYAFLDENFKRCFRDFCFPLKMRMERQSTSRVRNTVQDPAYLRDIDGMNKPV

`COC(=O)C1C(c2ccc(C)cc2)CC2CCC1N2CC#CC[18F]` (stereo not drawn) has an IC50 of 3.3 nM (SLC6A3 (Homo sapiens, UniProt Q01959); inhibitor).
The Ki of `CCCCCn1cc(C(=O)c2cccc3c2CC(C)(C)C3)c2ccccc21` is reported as 1.46 ± 0.49 nM (cannabinoid receptor CB1; binding).
`O=C(N[C@@H]1CC[C@@]2(O)[C@H]3Cc4ccc(O)c5c4[C@@]2(CCN3CC2CC2)[C@H]1O5)c1cccc2ccoc12` has a Ki of 0.81 ± 0.14 nM (OPRK1 (Homo sapiens, UniProt P41145); binding; together with: [3H]diprenorphine).
The IC50 of `Cc1cc(-c2ccccc2)nc2nc(C(=O)Nc3sc4c(c3C(N)=O)CCCCC4)nn12` is reported as 16000 nM (Polymerase acidic protein, with PB1, PB2 (Influenza A virus, UniProt P03433); RdRP activity, minireplicon).
With `OC[C@H]1NC[C@@H](O)[C@@H]1O` the Ki was 180 nM (yeast α-glucosidase).
`CCCCCc1cc(O)c2c(c1)OC(C)(C)[C@@H]1CCC(C)=C[C@@H]21` has an IC50 of 3 µg/mL (α-glucosidase yeast; enzyme activity, inhibitor).
`CCOC(=O)C1C(OC(c2ccc(Cl)cc2)c2ccc(Cl)cc2)CC2CCC1N2C` (single isomer, unassigned) has a Ki of 3060 ± 150 nM (muscarinic M1 receptor).
The Ki of `C[C@H]1[C@H](O)[C@@H](O)CN1C(=O)c1ccccc1` is reported as 46000 nM (Penicillium decumbens α-L-rhamnosidase).
The IC50 of `C[C@]12CC[C@@H](O)C[C@@H]1CC[C@@H]1[C@@H]2C(=O)C[C@]2(C)C(C#N)=CC[C@@H]12` is reported as 361 ± 58 nM (GABAA receptor picrotoxin site).
